{"data": "Measured values of several laboratories", "GABA-A receptor; alpha-1/beta-3/gamma-2": "GABA-A receptor; alpha-1/beta-3/gamma-2 (Homo sapiens, UniProt P14867+P18507+P28472)", "HTR2A": "5-hydroxytryptamine receptor 2A (HTR2A, Homo sapiens, UniProt P28223)", "OPRD1": "Delta-type opioid receptor (OPRD1, Homo sapiens, UniProt P41143)", "Genome polyprotein NS3 helicase domain": "Genome polyprotein, NS3 helicase domain (Hepatitis C virus genotype 1b, UniProt Q9WMX2)", "MET C1091S/C1146S/K1232C/L1195V": "Hepatocyte growth factor receptor (MET, Homo sapiens, UniProt P08581, C1091S/C1146S/K1232C/L1195V)", "note": "Values joined by “and” are separate records of one study, mostly repeats; a detail may differ. Numbers after ± are the reported error.", "chain of UniProt Q01959 (whole entry, unmodified, looked up)": "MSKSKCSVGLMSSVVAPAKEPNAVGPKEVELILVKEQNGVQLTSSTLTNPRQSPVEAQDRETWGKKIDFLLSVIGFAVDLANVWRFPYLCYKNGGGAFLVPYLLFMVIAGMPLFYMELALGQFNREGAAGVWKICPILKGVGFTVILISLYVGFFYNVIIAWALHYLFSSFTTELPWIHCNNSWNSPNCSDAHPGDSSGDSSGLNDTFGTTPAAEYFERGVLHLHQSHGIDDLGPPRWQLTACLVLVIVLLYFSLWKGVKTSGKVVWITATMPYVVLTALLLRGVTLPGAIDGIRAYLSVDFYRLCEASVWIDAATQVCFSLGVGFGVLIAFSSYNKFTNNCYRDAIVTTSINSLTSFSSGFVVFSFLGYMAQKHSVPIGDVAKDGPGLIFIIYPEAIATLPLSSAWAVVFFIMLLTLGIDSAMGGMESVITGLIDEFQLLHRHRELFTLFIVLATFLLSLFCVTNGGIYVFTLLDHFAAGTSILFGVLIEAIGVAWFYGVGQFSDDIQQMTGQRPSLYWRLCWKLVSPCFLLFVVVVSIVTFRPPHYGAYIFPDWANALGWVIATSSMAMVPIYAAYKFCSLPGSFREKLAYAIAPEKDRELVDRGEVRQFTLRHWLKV", "chain of UniProt P14867 (whole entry, looked up)": "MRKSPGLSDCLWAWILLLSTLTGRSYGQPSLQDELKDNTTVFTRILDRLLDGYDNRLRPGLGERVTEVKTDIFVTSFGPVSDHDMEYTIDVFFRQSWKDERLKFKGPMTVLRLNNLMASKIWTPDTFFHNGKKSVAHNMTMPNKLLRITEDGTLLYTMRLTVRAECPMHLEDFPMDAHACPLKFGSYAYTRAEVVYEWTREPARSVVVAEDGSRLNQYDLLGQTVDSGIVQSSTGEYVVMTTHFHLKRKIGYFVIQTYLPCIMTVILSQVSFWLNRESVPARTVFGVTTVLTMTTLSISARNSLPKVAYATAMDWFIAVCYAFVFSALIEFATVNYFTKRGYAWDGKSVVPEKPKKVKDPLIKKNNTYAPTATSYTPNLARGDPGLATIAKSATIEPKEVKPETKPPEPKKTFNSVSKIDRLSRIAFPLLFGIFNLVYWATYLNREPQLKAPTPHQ", "chain of UniProt P18507 (whole entry, looked up)": "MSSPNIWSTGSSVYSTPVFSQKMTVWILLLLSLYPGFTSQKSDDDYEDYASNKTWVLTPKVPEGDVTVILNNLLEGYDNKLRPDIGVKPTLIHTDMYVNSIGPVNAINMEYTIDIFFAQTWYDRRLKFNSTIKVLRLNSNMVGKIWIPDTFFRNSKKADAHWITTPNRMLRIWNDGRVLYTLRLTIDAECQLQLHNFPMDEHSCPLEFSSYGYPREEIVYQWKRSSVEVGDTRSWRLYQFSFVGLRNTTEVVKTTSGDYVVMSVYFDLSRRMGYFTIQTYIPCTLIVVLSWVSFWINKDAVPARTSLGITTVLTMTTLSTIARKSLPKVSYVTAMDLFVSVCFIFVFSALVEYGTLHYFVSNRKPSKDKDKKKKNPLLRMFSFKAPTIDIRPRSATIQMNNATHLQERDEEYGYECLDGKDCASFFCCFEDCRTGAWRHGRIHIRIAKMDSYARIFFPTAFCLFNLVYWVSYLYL", "chain of UniProt P28223 (whole entry, looked up)": "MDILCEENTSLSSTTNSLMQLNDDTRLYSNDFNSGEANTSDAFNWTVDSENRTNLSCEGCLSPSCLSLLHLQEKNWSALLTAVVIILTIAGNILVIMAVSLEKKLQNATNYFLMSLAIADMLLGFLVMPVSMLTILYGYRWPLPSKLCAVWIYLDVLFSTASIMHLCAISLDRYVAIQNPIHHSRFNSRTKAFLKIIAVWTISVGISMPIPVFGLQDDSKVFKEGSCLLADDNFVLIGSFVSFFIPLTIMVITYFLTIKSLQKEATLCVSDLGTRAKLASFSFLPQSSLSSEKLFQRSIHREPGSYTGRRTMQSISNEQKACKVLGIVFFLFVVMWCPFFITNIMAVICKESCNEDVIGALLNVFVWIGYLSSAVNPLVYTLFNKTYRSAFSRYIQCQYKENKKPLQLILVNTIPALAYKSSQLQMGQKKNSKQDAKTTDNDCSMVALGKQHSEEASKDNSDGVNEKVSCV", "chain of UniProt P28472 (whole entry, looked up)": "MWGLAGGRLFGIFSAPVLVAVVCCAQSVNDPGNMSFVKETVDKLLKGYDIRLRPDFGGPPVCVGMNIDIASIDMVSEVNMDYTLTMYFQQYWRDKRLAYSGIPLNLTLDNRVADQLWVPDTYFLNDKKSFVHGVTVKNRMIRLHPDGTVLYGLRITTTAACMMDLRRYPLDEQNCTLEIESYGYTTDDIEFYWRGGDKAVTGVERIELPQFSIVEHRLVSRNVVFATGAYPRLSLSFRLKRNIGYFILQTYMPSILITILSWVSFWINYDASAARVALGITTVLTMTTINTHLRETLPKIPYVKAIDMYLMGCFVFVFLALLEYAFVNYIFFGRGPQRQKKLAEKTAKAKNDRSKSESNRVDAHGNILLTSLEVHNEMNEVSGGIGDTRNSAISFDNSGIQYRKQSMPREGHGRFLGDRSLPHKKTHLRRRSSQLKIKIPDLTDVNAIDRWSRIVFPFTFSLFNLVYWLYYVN", "chain of UniProt P41143 (whole entry, looked up)": "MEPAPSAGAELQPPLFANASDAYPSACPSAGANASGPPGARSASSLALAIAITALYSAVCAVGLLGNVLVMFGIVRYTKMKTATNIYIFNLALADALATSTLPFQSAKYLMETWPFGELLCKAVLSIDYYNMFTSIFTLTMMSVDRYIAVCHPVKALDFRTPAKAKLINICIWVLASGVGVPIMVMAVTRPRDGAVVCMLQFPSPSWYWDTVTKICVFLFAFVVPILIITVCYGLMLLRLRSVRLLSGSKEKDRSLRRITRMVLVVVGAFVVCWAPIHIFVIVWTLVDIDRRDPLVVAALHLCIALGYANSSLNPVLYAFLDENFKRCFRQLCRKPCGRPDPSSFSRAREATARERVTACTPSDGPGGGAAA", "chain of UniProt P9WIL3 (whole entry, looked up)": "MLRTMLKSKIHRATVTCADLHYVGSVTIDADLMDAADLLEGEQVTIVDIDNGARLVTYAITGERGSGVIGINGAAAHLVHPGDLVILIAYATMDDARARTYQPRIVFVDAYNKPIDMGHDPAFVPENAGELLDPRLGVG", "chain of UniProt P23977 (whole entry, looked up)": "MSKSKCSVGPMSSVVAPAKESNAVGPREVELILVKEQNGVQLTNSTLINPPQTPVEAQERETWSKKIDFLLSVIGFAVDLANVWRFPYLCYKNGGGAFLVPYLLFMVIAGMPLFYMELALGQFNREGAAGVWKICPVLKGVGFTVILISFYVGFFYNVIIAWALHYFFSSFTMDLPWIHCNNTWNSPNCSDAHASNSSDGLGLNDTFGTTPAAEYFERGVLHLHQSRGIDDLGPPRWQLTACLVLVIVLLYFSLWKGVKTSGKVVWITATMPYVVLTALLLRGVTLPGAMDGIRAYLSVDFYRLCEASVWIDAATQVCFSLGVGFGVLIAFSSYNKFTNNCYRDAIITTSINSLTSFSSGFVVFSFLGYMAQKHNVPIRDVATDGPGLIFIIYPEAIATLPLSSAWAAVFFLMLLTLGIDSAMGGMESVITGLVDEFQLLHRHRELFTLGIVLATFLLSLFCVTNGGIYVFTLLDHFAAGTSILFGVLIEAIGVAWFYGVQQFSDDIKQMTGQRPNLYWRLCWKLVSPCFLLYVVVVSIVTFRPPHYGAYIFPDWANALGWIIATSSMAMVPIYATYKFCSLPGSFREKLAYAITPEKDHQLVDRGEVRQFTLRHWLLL", "chain of UniProt O00155 (whole entry, looked up)": "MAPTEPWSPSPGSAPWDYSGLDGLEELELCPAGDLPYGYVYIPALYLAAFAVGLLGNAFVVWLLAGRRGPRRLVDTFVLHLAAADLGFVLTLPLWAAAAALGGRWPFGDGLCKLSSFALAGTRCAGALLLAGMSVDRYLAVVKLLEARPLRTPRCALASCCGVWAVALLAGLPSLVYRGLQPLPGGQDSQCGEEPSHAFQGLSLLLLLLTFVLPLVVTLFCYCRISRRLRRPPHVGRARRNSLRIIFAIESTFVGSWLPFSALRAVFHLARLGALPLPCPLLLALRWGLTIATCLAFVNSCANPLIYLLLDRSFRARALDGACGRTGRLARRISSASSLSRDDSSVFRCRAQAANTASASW", "chain of UniProt P36544 (whole entry, looked up)": "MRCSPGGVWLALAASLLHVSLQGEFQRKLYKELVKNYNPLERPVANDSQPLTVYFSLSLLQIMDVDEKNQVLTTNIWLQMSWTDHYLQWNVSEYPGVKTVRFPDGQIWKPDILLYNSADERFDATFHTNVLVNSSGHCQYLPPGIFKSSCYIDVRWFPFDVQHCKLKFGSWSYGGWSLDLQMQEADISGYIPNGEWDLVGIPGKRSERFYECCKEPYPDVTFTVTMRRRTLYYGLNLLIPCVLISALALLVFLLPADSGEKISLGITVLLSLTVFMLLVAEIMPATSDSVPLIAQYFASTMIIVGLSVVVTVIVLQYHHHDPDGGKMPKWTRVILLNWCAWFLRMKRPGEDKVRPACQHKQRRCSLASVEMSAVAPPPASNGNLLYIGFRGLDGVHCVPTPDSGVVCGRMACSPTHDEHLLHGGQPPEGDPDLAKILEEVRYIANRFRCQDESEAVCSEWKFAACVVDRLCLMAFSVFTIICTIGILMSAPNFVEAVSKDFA", "chain of UniProt P21554 (whole entry, unmodified, looked up)": "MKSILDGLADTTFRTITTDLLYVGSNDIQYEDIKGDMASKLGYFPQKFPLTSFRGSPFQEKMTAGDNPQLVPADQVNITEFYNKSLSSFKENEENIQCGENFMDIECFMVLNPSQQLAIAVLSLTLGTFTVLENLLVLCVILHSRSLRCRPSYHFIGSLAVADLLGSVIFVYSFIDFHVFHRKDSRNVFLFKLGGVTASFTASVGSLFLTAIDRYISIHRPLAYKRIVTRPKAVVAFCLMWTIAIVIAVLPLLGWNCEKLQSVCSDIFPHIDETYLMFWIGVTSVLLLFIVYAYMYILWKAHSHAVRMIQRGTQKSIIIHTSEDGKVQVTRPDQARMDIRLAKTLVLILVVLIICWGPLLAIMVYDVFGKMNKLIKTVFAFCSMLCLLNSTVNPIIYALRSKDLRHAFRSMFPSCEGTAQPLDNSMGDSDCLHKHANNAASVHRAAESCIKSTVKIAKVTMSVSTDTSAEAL"}
{"SMILES": "CN1C(=O)NC(=O)[C@]2(CCc3ccccc32)C1=O", "target": "GABA-A receptor; alpha-1/beta-3/gamma-2", "setting": "300 µM", "endpoint": "Emax", "value": "16%"}
{"SMILES": "CCC(NCCc1cc(OC)c(C#N)cc1OC)c1ccccc1O (stereo not shown)", "target": "HTR2A", "assay": "agonist", "endpoint": "Emax", "value": "89%"}
{"SMILES": "CCOC(=O)c1cncn1[C@H](C)c1ccccc1", "target": "GABA-A receptor alpha-1/beta-3, with gamma-2 subunit (GABRA1/GABRB3, Homo sapiens, UniProt P14867+P28472)", "assay": "[3H]muscimol binding", "setting": "concentration not given, high anaesthetic concentrations, with: [3H]muscimol 2 nM", "how to read": "baseline: without compound", "endpoint": "binding enhancement", "value": "250%"}
{"SMILES": "COc1cc(CCNC(C)c2ccccc2O)c(OC)cc1C#N (single isomer, unassigned; (-))", "target": "HTR2A", "assay": "agonist", "endpoint": "Emax", "value": "93%"}
{"SMILES": "Brc1ccc2c(c1)C(c1ccccn1)=NCc1c(-c3cnco3)ncn1-2", "target": "ADRA2B (Homo sapiens, UniProt P18089)", "assay": "radioligand binding", "test system": "rat brain homogenate", "setting": "10 µM, with: [3H]rauwolscine", "endpoint": "inhibition", "value": "79.5%"}
{"SMILES": "O=C1NC(=S)NC(=O)C12CCc1ccc(Br)cc12", "target": "GABA-A receptor; alpha-1/beta-3/gamma-2", "setting": "300 µM", "endpoint": "Emax", "value": "43%"}
{"SMILES": "CC(NC(C)(C)C)C(=O)c1cccc(Cl)c1.Cl (stereo not shown)", "target": "Nuclear receptor subfamily 2 group C member 2, ligand-binding domain (Homo sapiens, UniProt P49116)", "assay": "SPR imaging", "setting": "600 nM", "endpoint": "koff", "value": "2.41e-05 s⁻¹"}
{"SMILES": "CN1C(=O)NC(=O)C2(CCCCc3ccccc32)C1=O (stereo not shown)", "target": "GABA-A receptor; alpha-1/beta-3/gamma-2", "setting": "300 µM", "endpoint": "Emax", "value": "10%"}
{"SMILES": "CS(=O)(=O)c1ccc(C(=O)N[C@H]2CC[C@@]3(O)[C@H]4Cc5ccc(O)c6c5[C@@]3(CCN4CC3CC3)[C@H]2O6)s1.Cl", "target": "OPRD1", "assay": "radioligand binding", "test system": "CHO membranes", "how to read": "baseline: Ki µ over Ki δ", "endpoint": "selectivity ratio", "value": 22.7}
{"SMILES": "CN1C(=O)N(C)C(=O)C2(CCc3ccccc32)C1=O", "target": "GABA-A receptor; alpha-1/beta-3/gamma-2", "setting": "300 µM", "endpoint": "Emax", "value": "7%"}
{"SMILES": "Oc1ccc2c3c1O[C@H]1[C@@H](O)CC[C@@]4(O)[C@@H](C2)N(CC2CCC2)CC[C@]314", "target": "Probable G-protein coupled receptor 25 (GPR25, Homo sapiens, UniProt O00155)", "assay": "β-arrestin recruitment, TANGO luminescence, measured: GPR25", "setting": "concentration not given", "how to read": "baseline: basal luminescence", "endpoint": "log2 fold change", "value": 0.352}
{"SMILES": "CC(N)C(O)c1ccc(O)c(O)c1 (single isomer, unassigned; (-))", "target": "Genome polyprotein NS3 helicase domain", "assay": "DNA binding, inhibitor", "test system": "hepatitis C virus", "setting": "100 µM, with: Cy5-dT15 DNA", "endpoint": "inhibition", "value": "0%"}
{"SMILES": "CCCc1cc(O)c2c(c1)OC(C)(C)[C@@H]1CCC(C)=C[C@@H]21", "target": "TRPV3 (Homo sapiens, UniProt Q8NET8, A560M)", "assay": "calcium uptake, agonist", "test system": "HEK293S", "setting": "mutant A560M, site 1", "endpoint": "Hill coefficient", "value": "2.36 ± 0.22"}
{"SMILES": "O=C1NC(=S)NC(=O)C12CCc1ccccc12", "target": "GABA-A receptor; alpha-1/beta-3/gamma-2", "setting": "300 µM", "endpoint": "Emax", "value": "2%"}
{"SMILES": "CN[C@]1(c2ccccc2Cl)CCCCC1=O", "target": "CHRNA7 (Homo sapiens, UniProt P36544)", "assay": "radioligand binding, antagonist, radioligand displacement", "setting": "30 µM", "endpoint": "inhibition", "value": "2%"}
{"SMILES": "CCCCCCC(C)(C)c1ccc([C@@H]2C[C@H](O)CC[C@H]2CCCO)c(O)c1", "target": "CNR1 (Homo sapiens, UniProt P21554, I267L/L193I/L359V)", "assay": "cAMP inhibition, agonist, CAMYEL biosensor", "setting": "triple mutant receptor, with: forskolin 10 µM", "how to read": "baseline: wild-type receptor", "endpoint": "Emax", "value": "91.3 ± 1.8%"}
{"SMILES": "Cl.O=C(N[C@H]1CC[C@@]2(O)[C@H]3Cc4ccc(O)c5c4[C@@]2(CCN3CC2CC2)[C@H]1O5)c1ccc(C(F)F)s1", "target": "OPRD1", "assay": "radioligand binding", "test system": "CHO membranes", "how to read": "baseline: Ki µ over Ki δ", "endpoint": "selectivity ratio", "value": 117}
{"SMILES": "Nc1ncnc2c1ncn2[C@@H]1O[C@H](CSCC[C@H](N)C(=O)O)[C@@H](O)[C@H]1O", "target": "Replicase polyprotein 1ab, nsp10-nsp16 complex (rep, Human coronavirus 229E, UniProt P0C6X1)", "endpoint": "Hill slope", "value": -0.7}
{"SMILES": "c1ccc2cc([C@]34CNC[C@H]3C4)ccc2c1", "target": "SLC6A3 (Homo sapiens, UniProt Q01959, F326A)", "assay": "inhibitor, [3H]dopamine uptake", "setting": "1 µM, F326A mutant", "how to read": "baseline: no inhibitor", "endpoint": "dopamine uptake", "value": "70.1% and 63.3% and 71.2%"}
{"SMILES": "CCCC(NC)C(=O)c1ccc2c(c1)OCO2 (racemic)", "target": "Slc6a3 (Rattus norvegicus, UniProt P23977)", "assay": "substrate release, releaser", "test system": "rat brain synaptosomes", "setting": "with: [3H]MPP+ 9 nM", "endpoint": "EC50", "value": "inactive"}
{"SMILES": "COc1ccc(CCN)cc1OC", "target": "Gag polyprotein, nucleocapsid protein p7 (gag, Human immunodeficiency virus type 1 group M subtype B, UniProt P04591)", "assay": "NCp7-RNA binding, inhibitor, AlphaScreen", "setting": "45 µM, with: biotinylated U3 RNA", "how to read": "baseline: DMSO control", "endpoint": "inhibition", "value": "> 50%"}
{"SMILES": "O=C(O)c1cnccn1", "target": "Aspartate 1-decarboxylase (panD, Mycobacterium tuberculosis, UniProt P9WIL3)", "assay": "β-alanine production", "setting": "200 µM, 40 min, 298 K, with: L-aspartate 2 mM", "endpoint": "inhibition", "value": "4.8%"}
{"SMILES": "COc1cc(CCNCc2ccccc2)c(OC)cc1C#N", "target": "HTR2A", "assay": "agonist", "endpoint": "Emax", "value": "92%"}
{"SMILES": "Oc1cccc([C@]23CCC[C@H]([C@H]2O)N(CC=Cc2ccccc2)CC3)c1", "target": "Oprd1 (Rattus norvegicus, UniProt P33533)", "assay": "agonist", "test system": "C6 cells expressing delta opioid receptor", "setting": "10 µM", "how to read": "baseline: DPDPE", "endpoint": "efficacy", "value": "51 ± 3.7%"}
{"SMILES": "Nc1ncnc2c1ncn2[C@@H]1O[C@H](COP(=O)(O)OP(=O)(O)OP(=O)(O)O)[C@@H](O)[C@H]1O", "target": "MET (Homo sapiens, UniProt P08581, L1195V)", "assay": "substrate", "endpoint": "Km", "value": "2 µM"}
{"SMILES": "CCCN(CCC)CCc1c[nH]c2ccc(C(N)=O)cc12.O=C(O)/C=C\\C(=O)O", "target": "Genome polyprotein NS3 helicase domain", "assay": "DNA binding, inhibitor", "test system": "hepatitis C virus", "setting": "100 µM, with: Cy5-dT15 DNA", "endpoint": "inhibition", "value": "0%"}
{"SMILES": "CN(C[C@@H]1COCCO1)S(=O)(=O)Nc1ccc2ccc3ncc(-c4cnn(C)c4)cc3c(=O)c2c1", "target": "MET C1091S/C1146S/K1232C/L1195V", "setting": "concentration not given", "how to read": "baseline: wild type", "endpoint": "binding affinity", "value": "47 fold"}
{"SMILES": "CCOc1ccccc1C(=O)Nc1ccc(Cl)c(C(F)(F)F)c1", "target": "KAT5 (Homo sapiens, UniProt Q92993)", "assay": "SPR", "setting": "0.07 µM", "how to read": "higher = more binding", "endpoint": "SPR binding response", "value": "0.124 RU"}
{"SMILES": "CC(C)c1ccc2c(c1)C1(CC2)C(=O)NC(=O)NC1=O", "target": "GABA-A receptor; alpha-1/beta-3/gamma-2", "setting": "300 µM", "endpoint": "Emax", "value": "26%"}
{"SMILES": "Cc1ccc(C(=O)Nc2ccc(Oc3cc4cnn(C)c4cc3-c3cn[nH]c3)c(F)c2)c(=O)n1-c1ccc(F)cc1", "target": "MET C1091S/C1146S/K1232C/L1195V", "setting": "concentration not given", "how to read": "baseline: wild type", "endpoint": "Kd fold change", "value": "≤ 1.5 fold"}
{"SMILES": "Cl.NS(=O)(=O)c1ccc(C(=O)N[C@H]2CC[C@@]3(O)[C@H]4Cc5ccc(O)c6c5[C@@]3(CCN4CC3CC3)[C@H]2O6)s1", "target": "OPRD1", "assay": "radioligand binding", "test system": "CHO membranes", "how to read": "baseline: Ki µ over Ki δ", "endpoint": "selectivity ratio", "value": 19.6}
{"note": "Some of these lines once more:"}
{"SMILES": "c1ccc2cc([C@]34CNC[C@H]3C4)ccc2c1", "target": "SLC6A3 (Homo sapiens, UniProt Q01959, F326A)", "assay": "inhibitor, [3H]dopamine uptake", "setting": "1 µM, F326A mutant", "how to read": "baseline: no inhibitor", "endpoint": "dopamine uptake", "value": "70.1% and 63.3% and 71.2%"}
{"SMILES": "CCCC(NC)C(=O)c1ccc2c(c1)OCO2 (racemic)", "target": "Slc6a3 (Rattus norvegicus, UniProt P23977)", "assay": "substrate release, releaser", "test system": "rat brain synaptosomes", "setting": "with: [3H]MPP+ 9 nM", "endpoint": "EC50", "value": "inactive"}
{"SMILES": "COc1ccc(CCN)cc1OC", "target": "Gag polyprotein, nucleocapsid protein p7 (gag, Human immunodeficiency virus type 1 group M subtype B, UniProt P04591)", "assay": "NCp7-RNA binding, inhibitor, AlphaScreen", "setting": "45 µM, with: biotinylated U3 RNA", "how to read": "baseline: DMSO control", "endpoint": "inhibition", "value": "> 50%"}
{"SMILES": "O=C(O)c1cnccn1", "target": "Aspartate 1-decarboxylase (panD, Mycobacterium tuberculosis, UniProt P9WIL3)", "assay": "β-alanine production", "setting": "200 µM, 40 min, 298 K, with: L-aspartate 2 mM", "endpoint": "inhibition", "value": "4.8%"}
